Results from different studies.
Each line is one published result; not all experiments were run side by side. Several values in a cell are separate wells, animals, samples, runs or records. Numbers after ± are the reported error.

Structure (SMILES) | tested on | assay | system | conditions | scale | quantity | value
CCS(=O)(=O)c1nc(C2CC2)cc(C(F)(F)F)n1 | HeLa Kyoto | RelA nuclear import, high content imaging | – | 1.58 µM, 3 h, together with: 1 µM PMA, 60 min | – | cells with nuclear RelA | 85.2% and 76.5%
O=C([C@@H](Cc1cccc(C(F)(F)F)c1)NS(=O)(=O)c1cc(F)c2c(c1)CCNC2)N1CCCC1 | HBL-1 | – | – | 0.1 µM, 120 h | – | viability | 102%
CC[C@]1(O)C[C@H]2CN(CCc3c([nH]c4ccccc34)[C@@](C(=O)OC)(c3cc4c(cc3OC)N(C=O)[C@H]3[C@@](O)(C(=O)OC)[C@H](OC(C)=O)[C@]5(CC)C=CCN6CC[C@]43[C@@H]65)C2)C1 | BT-12 | cell viability, MTT | – | 10 µM, 72 h | – | inhibition | 88.4%
COc1cccc2c1C(=O)c1c(O)c3c(c(O)c1C2=O)C[C@@](O)(C(=O)CO)C[C@@H]3O[C@H]1C[C@H](N)[C@H](O)[C@H](C)O1 | A2058 | WST-1 | – | concentration not given, 72 h, highest tested concentration | – | maximal cytotoxicity | 97.7%
CC(C)N(CCCNC(=O)Nc1ccc(C(C)(C)C)cc1)C[C@H]1O[C@@H](n2cc(Br)c3c(N)ncnc32)[C@H](O)[C@@H]1O | HBL-1 | – | – | 0.1 µM, 120 h | – | viability | 138%
Cn1cc(Nc2nccc(-c3ccc4c(c3)CN(C3COC3)CC[C@H]4NC(=O)c3cn(C(C)(C)C)nn3)n2)cn1 | mouse splenic B cells | refers to: ErbB4 signalling | – | 30 mg/kg, IgD-activated in vivo | relative to: vehicle, direction not given | pathway activation z-score | 3
CN(C)CC(=O)N1CCC(c2ccc(NC(=O)c3nc(C#N)c[nH]3)c(C3=CCCCC3)c2)CC1 | hiPSC cardiomyocytes | CellTiter-Glo | – | concentration not given, 24 h | relative to: vehicle | ATP level | 85%
COc1ccc(C(=O)Nc2sc3c(c2C(N)=O)CCCC3)cc1OC | HeLa expressing Ub(G76V)-GFP | Ub(G76V)-GFP degradation, inhibitor, cycloheximide chase | – | 12 µM | – | inhibition | 28%
Cc1cc(C2CCCCC2)n(O)c(=O)c1.NCCO | BT-12 | cell viability, MTT | – | 10 µM, 72 h | – | inhibition | 86.1%
CCN(CC)Cc1ccc2cc(COC(=O)Nc3ccc(C(=O)NO)cc3)ccc2c1 | HBL-1 | – | – | 1 µM, 120 h | – | viability | 0.334%
Fc1ccc(-c2nc3n(c2-c2ccncc2)CCS3)cc1 | HeLa expressing Ub(G76V)-GFP | Ub(G76V)-GFP degradation, cycloheximide chase | – | 12 µM | – | inhibition | 17%
COc1ccc(C=CC(=O)NC(=O)c2ccccc2OC(=O)c2ccccc2)cc1OC | Plasmodium yoelii | – | 17XL | 384-well | – | IC50 | 585 ± 147 nM
COc1cc(Nc2ncc(F)c(Nc3ccc4c(n3)N(COP(=O)(O)O)C(=O)C(C)(C)O4)n2)cc(OC)c1OC | BT-12 | cell viability, MTT | – | 10 µM, 72 h | – | inhibition | 85.6%
N=C1NC(=O)/C(=C/c2ccc(O)cc2)S1 | HBL-1 | – | – | 1 µM, 120 h | – | viability | 92.5%
COc1cc2ncnc(Nc3ccc(Oc4ccccc4)cc3C)c2cc1OC.O=C(O)C(F)(F)F | NCI-H2087 (BRAF L597V) | – | – | 0.3 µM, together with: trametinib 0 nM | – | fractional effect | 0.145
COc1cc2c(NC3CCN(C)CC3)nc(N3CCCN(C)CC3)nc2cc1OCCCN(C)C | HBL-1 | – | – | 1 µM, 120 h | – | viability | 94.2%
c1ccc(-c2[nH]ncc2-c2ccnc3ccccc23)nc1 | HeLa expressing Ub(G76V)-GFP | Ub(G76V)-GFP degradation, cycloheximide chase | – | 12 µM | – | inhibition | 26%
Cc1[nH]c(C)c(-c2ccc(CCc3cccc(C(F)(F)F)c3)nc2)c(=O)c1Cl | Plasmodium yoelii | – | 17XL | 384-well | – | IC50 | 100 ± 29 nM
O=C([O-])CN(CCN(CC(=O)[O-])Cc1cc(CCC(=O)NCCCCCC(=O)NCCCC[C@H](NC(=O)N[C@@H](CCC(=O)O)C(=O)O)C(=O)O)ccc1[O-])Cc1cc(CCC(=O)O)ccc1[O-].[68Ga+3].[OH3+] | LNCaP | – | – | 25 nM, 1 h, 37 °C | – | surface-bound activity | 0.76 ± 0.2 %AD/mg protein
Cc1cc(Nc2ccc(NC(=O)c3ccc(Nc4ccnc5ccccc45)cc3)cc2)nc(N)n1 | HBL-1 | – | – | 1 µM, 120 h | – | viability | 0.343%
CC1(C)CCC(CN2CCN(c3ccc(C(=O)NS(=O)(=O)c4ccc(NCC5CCOCC5)c([N+](=O)[O-])c4)c(Oc4cnc5[nH]ccc5c4)c3)CC2)=C(c2ccc(Cl)cc2)C1 | THP-1 | annexin V/PI flow cytometry, refers to: annexin V+/PI+ | – | 0.8 µM, 24 h | – | late apoptotic cells | 2.3%
CN(C)C/C=C/C(=O)Nc1cc2c(Nc3ccc(F)c(Cl)c3)ncnc2cc1O[C@H]1CCOC1 | KB-C2 spheroids | – | – | 3 µM, day 12, single dose | – | spheroid volume | 13 ± 0.8 mm³
Cn1cc(-c2ccc(-c3cncc(Cl)c3N3CCC4(CCNC4=O)CC3)cc2)cn1 | COLO 205 | gene expression, microarray, refers to: INHBB mRNA | – | concentration not given, 6 h | relative to: untreated cells | log2 fold change | 1.83
Oc1cc(O)c2cc(O)c(-c3cc(O)c(O)c(O)c3)[o+]c2c1 | HBL-1 | – | – | 1 µM, 120 h | – | viability | 111%
COc1cnc2cccc(N3CCc4c(cc(Cn5ccnc5C)cc4-c4cn(C)nc4C(F)(F)F)C3=O)c2c1 | HuTu80 | cell growth, inhibitor | – | 120 h | – | EC50 | 16500 nM

Excerpt of the above:
Structure (SMILES) | tested on | assay | system | conditions | scale | quantity | value
COc1cc2c(NC3CCN(C)CC3)nc(N3CCCN(C)CC3)nc2cc1OCCCN(C)C | HBL-1 | – | – | 1 µM, 120 h | – | viability | 94.2%
CCS(=O)(=O)c1nc(C2CC2)cc(C(F)(F)F)n1 | HeLa Kyoto | RelA nuclear import, high content imaging | – | 1.58 µM, 3 h, together with: 1 µM PMA, 60 min | – | cells with nuclear RelA | 85.2% and 76.5%
COc1cccc2c1C(=O)c1c(O)c3c(c(O)c1C2=O)C[C@@](O)(C(=O)CO)C[C@@H]3O[C@H]1C[C@H](N)[C@H](O)[C@H](C)O1 | A2058 | WST-1 | – | concentration not given, 72 h, highest tested concentration | – | maximal cytotoxicity | 97.7%
